Results of several laboratories.
Parts stem from different laboratories: compare values within a part only. Several values in a cell are separate wells, animals, samples, runs or records.
UniProt P28223, sequence (whole entry, looked up): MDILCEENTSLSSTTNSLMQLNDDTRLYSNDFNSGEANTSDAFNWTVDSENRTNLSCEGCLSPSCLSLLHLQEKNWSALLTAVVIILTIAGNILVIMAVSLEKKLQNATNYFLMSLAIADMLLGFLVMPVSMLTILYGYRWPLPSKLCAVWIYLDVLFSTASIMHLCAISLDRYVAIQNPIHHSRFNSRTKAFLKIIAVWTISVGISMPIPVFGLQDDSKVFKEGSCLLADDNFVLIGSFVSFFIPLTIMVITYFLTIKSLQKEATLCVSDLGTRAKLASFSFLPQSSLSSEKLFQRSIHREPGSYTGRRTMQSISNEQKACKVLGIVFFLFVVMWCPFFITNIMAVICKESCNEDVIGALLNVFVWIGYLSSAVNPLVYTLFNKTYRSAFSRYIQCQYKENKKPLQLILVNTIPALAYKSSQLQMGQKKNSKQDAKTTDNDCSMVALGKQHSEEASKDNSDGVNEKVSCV

Study 1
Technique: logD(dd/w) and ALogP
Notes: JT method
Structure (SMILES)	lipophilic permeability efficiency
CC(C)C[C@@H]1NC(=O)[C@H](C(C)C)NC(=O)[C@H](Cc2cscn2)NC(=O)[C@H](CCC(=O)N2CCCC2)NC(=O)[C@@H](CCC(=O)N2CCCC2)NC(=O)[C@H](CC(C)C)NC(=O)[C@@H](CC(C)C)NC1=O	1.78
CC(C)C[C@@H]1NC(=O)[C@H](C)NC(=O)[C@@H](C(C)C)NC(=O)[C@H](C(C)C)NC(=O)[C@H](CC(C)C)NC(=O)[C@@H](CC(C)C)NC(=O)[C@H](CC(C)C)NC1=O	2.32
CC(C)C[C@@H]1NC(=O)[C@H](C)NC(=O)[C@H](CC(C)C)NC(=O)[C@@H](CC(C)C)NC(=O)[C@H](CC(C)C)NC(=O)[C@H](C)NC(=O)[C@@H](CC(C)C)NC1=O	2.18
CC(C)C[C@@H]1NC(=O)[C@H](CC(C)C)NC(=O)[C@H](CC(C)C)NC(=O)[C@H](C(C)C)NC(=O)[C@H](C)NC(=O)[C@H](C)NC(=O)[C@H](CCC(=O)N2CCCC2)NC1=O	1.74
CC(C)C[C@@H]1NC(=O)[C@H](CC(C)C)NC(=O)[C@@H](C(C)C)NC(=O)[C@H](C(C)C)NC(=O)[C@H](C(C)C)NC(=O)[C@H](C)NC(=O)[C@H](C)NC1=O	1.82
CC(C)C[C@@H]1NC(=O)[C@H](CCC(=O)N2CCCC2)NC(=O)[C@@H](C(C)C)NC(=O)[C@H](C)NC(=O)[C@H](CC(C)C)NC(=O)[C@@H](CC(C)C)NC(=O)[C@H](CC(C)C)NC1=O	1.93
CC(C)C[C@@H]1NC(=O)[C@H](C)NC(=O)[C@H](Cc2cscn2)NC(=O)[C@H](C)NC(=O)[C@@H](CCC(=O)N2CCCC2)NC(=O)[C@H](CC(C)C)NC(=O)[C@@H](CC(C)C)NC1=O	1.97
CC(C)C[C@@H]1NC(=O)[C@H](CC(C)C)NC(=O)[C@@H](CC(C)C)NC(=O)[C@H](C(C)C)NC(=O)[C@H](C)NC(=O)[C@@H](CC(C)C)NC(=O)[C@H](C)NC1=O	2.43

Study 2
Target: Serine/threonine-protein kinase PAK 5 (PAK5, Homo sapiens, UniProt Q9P286)
UniProt Q9P286, sequence (whole entry, looked up): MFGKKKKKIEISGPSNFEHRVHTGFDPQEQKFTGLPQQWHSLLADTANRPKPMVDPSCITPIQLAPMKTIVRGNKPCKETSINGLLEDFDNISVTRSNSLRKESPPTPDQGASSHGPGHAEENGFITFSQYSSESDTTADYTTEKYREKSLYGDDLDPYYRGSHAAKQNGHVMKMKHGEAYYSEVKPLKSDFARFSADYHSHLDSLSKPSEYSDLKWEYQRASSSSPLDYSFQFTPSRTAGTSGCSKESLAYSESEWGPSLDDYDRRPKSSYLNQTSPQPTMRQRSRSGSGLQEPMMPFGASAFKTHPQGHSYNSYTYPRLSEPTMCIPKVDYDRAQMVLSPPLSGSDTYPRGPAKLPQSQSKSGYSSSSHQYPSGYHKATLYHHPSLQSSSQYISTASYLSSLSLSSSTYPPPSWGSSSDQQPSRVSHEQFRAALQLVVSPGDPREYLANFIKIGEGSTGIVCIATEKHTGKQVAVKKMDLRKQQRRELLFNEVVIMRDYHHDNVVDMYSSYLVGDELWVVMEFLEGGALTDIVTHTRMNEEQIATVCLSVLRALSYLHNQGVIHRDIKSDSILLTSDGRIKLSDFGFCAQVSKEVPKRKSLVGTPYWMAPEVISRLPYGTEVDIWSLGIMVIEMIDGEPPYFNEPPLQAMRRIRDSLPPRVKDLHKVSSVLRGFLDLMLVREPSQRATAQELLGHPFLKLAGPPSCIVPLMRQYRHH
Read-out: enzyme activity
Action: inhibitor
Tested at: 0.5 µM
Relative to: control
SMILES	remaining activity [%]
Cc1ccc(NC2=CC(=O)c3sc(C)nc3C2=O)cc1	77.4
Fc1ccc(-c2nc3n(c2-c2ccncc2)CCS3)cc1	97.6
Nc1ncnc2c1cnn2-c1ccccc1	97
Oc1ccc(Nc2nc(-c3ccc(Cl)cc3)cs2)cc1	105
Nc1nccc(-c2c(-c3ccc(F)cc3)ncn2C2CCNCC2)n1	101
Cc1cc(Nc2nc(-c3ccccc3)nc3ccccc23)n[nH]1	53.1
CSc1nc(-c2ccnc(N[C@@H](C)c3ccccc3)c2)c(-c2ccc(F)cc2)[nH]1 (racemic)	85.3
CC(=O)c1ccc(N2CCOCC2)cc1O	102

Study 3
SMILES: Cc1cc2c(C(N)=O)c(N)n(-c3c(C)ccc(O)c3C)c2nc1C
Relative to: DMSO
cell line	assay	setting	cell growth
NCI-H1048	MTT	3.33 µM, 5 d	5.57% and 8.44%
NCI-H1048	MTT	511 pM, 5 d	97.3% and 102%
NCI-H69	MTT	1.52 nM, 5 d	85.9% and 95%
NCI-H446	Vi-Cell counting	124 nM, 5 days	97.7% and 83.7%
NCI-H446	Vi-Cell counting	13.7 nM, 5 days	99.6% and 101%
NCI-H1048	MTT	4.57 nM, 5 d	99.2% and 92.3%
NCI-H446	Vi-Cell counting	41.1 nM, 5 days	92% and 97%
NCI-H1048	MTT	1.11 µM, 5 d	36.7% and 32.8%

Single results of other studies
Compound	target	assay	setting	quantity	result
Cc1ccccc1Oc1cc(-n2c(=O)cc(C(F)(F)F)[nH]c2=O)c2ccccc2c1Cl	5-hydroxytryptamine receptor 2A (HTR2A, Homo sapiens, UniProt P28223)	ligand displacement	10 µM	inhibition	-2.88%

A few entries again (study 3):
cell line	assay	setting	cell growth
NCI-H446	Vi-Cell counting	41.1 nM, 5 days	92% and 97%
NCI-H1048	MTT	511 pM, 5 d	97.3% and 102%
NCI-H1048	MTT	4.57 nM, 5 d	99.2% and 92.3%
NCI-H446	Vi-Cell counting	124 nM, 5 days	97.7% and 83.7%
